Measurements gathered from unrelated publications.
Lines come from different studies, so protocols differ. “And” joins repeats or separate records; there may be more than shown. ± marks the error that the study gave.

| Compound | cell line | assay | setting | scale | measurement | value |
| --- | --- | --- | --- | --- | --- | --- |
| COc1cc2ncnc(Nc3ccc(Oc4ccccc4)cc3C)c2cc1OC.O=C(O)C(F)(F)F | COLO 205 (BRAF V600E) | resazurin | 0.1 µM, 72 h, together with: trametinib 0 nM | – | viability | 0.871 fraction of control |
| CC(C)(c1ccc(O)cc1)c1ccc(O)cc1 | HepG2 spheroids | flow cytometry, refers to: γH2AX | 24 h | – | lowest DNA double-strand break concentration | 40 µM |
| CC(=O)Nc1cccc(-n2c(=O)n(C3CC3)c(=O)c3c(Nc4ccc(I)cc4F)n(C)c(=O)c(C)c32)c1 | A-431 | WST-8 | 1 µM, 25 h, together with: IFN-γ | – | viability | 117% |
| COc1c(O[C@@H]2O[C@H](CO)[C@@H](O)[C@H](O)[C@H]2O)c(C)cc2c1C(=O)c1c(O)cccc1C2=O | HepaRG co-cultured with HK-2 | MTT | 266.67 µM, 48 h | baseline: untreated control | cell viability | 21.9 ± 1.47% |
| CCN(CC)CCCC(C)Nc1ccnc2cc(Cl)ccc12 (centres unmarked) | hiPSC-derived ventricular cardiomyocytes | IKr current, perforated patch clamp | 5 µM | – | inhibition | 60.5% and 73.4% and 69% and 48.1% |
| CC(C)n1c(/C=C/C(O)CC(O)CC(=O)O)c(-c2ccc(F)cc2)c2ccccc21 (centres unmarked) | COS-7 | – | 10 µM, 24 h, 0.1% DMSO, unit not given | baseline: vehicle control | confluence | 0.8 ± 0.09 |
| COc1ccc2c(Cc3ccccc3F)c3n(c(=O)c2c1OC)CCc1cc2c(cc1-3)OCO2 | HFL1 | cytotoxicity, CCK-8 | 24 h | – | IC50 | 40.3 µM |
| O=C(O)c1cc(O)c2c(c1)C(=O)c1cccc(O)c1C2=O | HepaRG co-cultured with HK-2 | MTT | 133.33 µM, 24 h | baseline: untreated control | cell viability | 64.5 ± 8.54% |
| COc1cc2nc(NCCCN(C)C)nc(NC3CCN(Cc4ccccc4)CC3)c2cc1OC | MV4-11 | – | 10 µM | – | cytotoxicity | 100% |
| COc1cccc(-c2ccc(NC(=O)C3=C(C(=O)O)CCC3)c(F)c2)c1 | COS-7 | – | 3 µM, 24 h, 0.1% DMSO, unit not given | baseline: vehicle control | confluence | 0.92 ± 0.04 |
| CC(C)=CCC[C@@]1(C)C(CC[C@H]2[C@]3(C)CC[C@H](O)C(C)(C)O[C@H]3CC[C@@]2(C)O)=C(C)CC[C@H]1O | HEK293 MRP7 transfected | cell viability, MTT | 72 h | – | IC50 | > 50 µM |
| CC(C)(C)NC(=O)C[C@H](NC(=O)C(=O)c1c[nH]c2ccccc12)C(=O)NCc1cccc(B(O)O)c1 | human PBMCs | cytotoxicity | 72 h, 0.5% DMSO | – | EC50 | > 50 µM |
| CCC(=O)NS(=O)(=O)c1ccc(-c2c(-c3ccccc3)noc2C)cc1 | COS-7 | – | 100 µM, 24 h, 0.1% DMSO, unit not given | baseline: control | confluence | 0.91 ± 0.04 |
| O=C(O[C@@H]1COC(=O)c2cc(O)c(O)c(O)c2-c2c(cc(O)c(O)c2O)C(=O)O[C@H]1[C@@H]1OC(=O)c2cc(O)c(O)c(O)c2-c2c(O)c(O)c(O)c3c2C(=O)O[C@H]1[C@@H]3O)c1cc(O)c(O)c(O)c1 | human gingival fibroblasts | cytotoxicity | 48 h | – | IC50 | > 100 µg/mL |
| COc1cc2ncnc(Nc3ccc(Oc4ccccc4)c(C)c3C)c2cc1OC.Cl | COLO 205 (BRAF V600E) | resazurin | 1 µM, 72 h, unit not given, together with: trametinib 1 µM | baseline: DMSO | viability | 0.929 and 0.722 |
| COc1cc2c(c(O)c1OC)C(=O)c1c(cc(C)c(O[C@@H]3O[C@H](CO)[C@@H](O)[C@H](O)[C@H]3O)c1OC)C2=O | HepaRG co-cultured with HK-2 | MTT | 66.67 µM, 48 h | baseline: untreated control | cell viability | 64 ± 14.2% |
| C#Cc1cccc(Nc2ncnc3cc(OCCOC)c(OCCOC)cc23)c1 | primary mixed glial cells (astrocytes, oligodendrocytes) | cytotoxicity, sulforhodamine B | 24 h | – | IC50 | > 100 µM |
| COc1c(O)c(C)cc2c1C(=O)c1c(O)cccc1C2=O | HepaRG co-cultured with HK-2 | MTT | 33.33 µM, 48 h | baseline: untreated control | cell viability | 50.2 ± 3.11% |
| COCCOCc1ccc(-c2cc3onc(-c4ccccc4)c3c(=O)n2C)cc1 | COS-7 | – | 10 µM, 24 h, 0.1% DMSO, unit not given | baseline: vehicle control | confluence | 0.92 ± 0.02 |
| CCOC(=O)Nc1nc2ccc(NCc3ccc(OC(F)(F)F)cc3)cc2[nH]1 | sample A patient iPSC-derived NPCs | MTS | 10 µM, 24 h | baseline: vehicle | viability | 101 ± 1.14% |
| Cc1cc(O)c2c(c1)C(=O)c1cc(O)cc(O)c1C2=O | HepaRG co-cultured with HK-2 | MTT | 16.67 µM, 48 h | baseline: untreated control | cell viability | 66.9 ± 6.85% |

| Compound | cell line | assay | setting | scale | measurement | value |
| --- | --- | --- | --- | --- | --- | --- |
| COC[C@@H](CC(C)C)NC(=O)c1ccc(C)c(C)c1 | primary human lymphocytes | – | 225 µg/mL, 4 (unit not given), with S9 | – | mean mitotic index | 11.7 |
| CN1C(C(=O)Nc2ccccn2)=C(O)c2sc(Cl)cc2S1(=O)=O | COS-7 | – | 30 µM, 24 h, 0.1% DMSO, unit not given | baseline: vehicle control | apoptotic cells | 0.62 ± 0.12 |
| CCN(CCO)CCCC(C)Nc1ccnc2cc(Cl)ccc12 (centres unmarked) | hiPSC-derived ventricular cardiomyocytes | IKr current | 10 µM, 4 min washout | – | recovery | 70.7% |
| O=C(NOCC(O)CO)c1cc(Br)c(F)c(F)c1Nc1ccc(I)cc1F (centres unmarked) | A-431 | WST-8 | 1 µM, IDO1 inhibitor study, together with: IFN-γ | – | viability | 81.3% |
| COc1c(O)c(C)cc2c1C(=O)c1c(ccc(O)c1O)C2=O | HepaRG co-cultured with HK-2 | MTT | 133.33 µM, 48 h | baseline: untreated control | cell viability | 38.9 ± 2.58% |
| CCN1CCN(c2cc(N3CCN(CC)CC3)nc(NCCNc3ccnc4cc(Cl)ccc34)n2)CC1 | COS-7 | WST-8 | 10 µM, 24 h, 0.1% DMSO, unit not given | baseline: vehicle control | metabolic activity | 0.77 ± 0.36 |
| Cc1cc(C(=O)NC(C)(C)COc2cccc3c2C(N)=NS(=O)(=O)N3)cc(C)n1 | human peripheral blood lymphocytes | CBPI, concurrent micronucleus test | 100 µg/mL, 24 h | baseline: vehicle control | cytotoxicity | 2% |
| Cc1noc(C)c1Cn1cc(N2C(=O)CN(Cc3cccc(O)c3)C2=O)cn1 | human blood lymphocytes | – | 1300 µg/mL, 3 h, with 5% S9 | – | aberrant cells without gaps | 6% |
| [Cl-].[Cl-].[Ru+2].c1cnc2c(c1)c1nc[nH]c1c1cccnc12.c1cnc2c(c1)ccc1cccnc12.c1cnc2c(c1)ccc1cccnc12 | SK-MEL-28 | – | concentration not given, normoxia, together with: green light 523 nm | – | photocytotoxicity | inactive |
| CC1CS(=O)(=O)CCN1/N=C/c1ccc([N+](=O)[O-])o1 (centres unmarked) | PMA-differentiated THP-1 macrophages | – | 50 µM, 24 h | – | viability | 111 ± 6.9% |
| O=C(O)c1cc(O)c2c(c1)C(=O)c1cccc(O[C@@H]3O[C@H](CO)[C@@H](O)[C@H](O)[C@H]3O)c1C2=O | HepaRG co-cultured with HK-2 | MTT | 16.67 µM, 24 h | baseline: untreated control | cell viability | 104 ± 9.29% |
| COc1ccc(-c2nn(-c3ccccc3)cc2C=NNc2cn[nH]c(=O)c2Cl)cc1 | CEM | differential nuclear staining | 48 h | – | CC50 | > 40 µM |
| c1cc(-c2nc(N3CCNCC3)c3c4c(sc3n2)CCCC4)ccn1 | bovine primary retinal endothelial | Transwell | 0.01 µM, together with: VEGF, RITC-dextran 70 kDa | – | VEGF-induced permeability | no effect |
| Cc1cc(C)c(CNC(=O)c2cc(Cl)c3c(c2C)O[C@@](C)([C@H]2CC[C@H](N(C)C)CC2)O3)c(=O)[nH]1 | Caco-2 | – | 10 µM | – | Papp A to B | 0.398 ± 0.021 ×10⁻⁶ cm/s |
| COc1cc2c(c(O)c1OC)C(=O)c1c(cc(C)c(O)c1OC)C2=O | HepaRG co-cultured with HK-2 | MTT | 33.33 µM, 48 h | baseline: untreated control | cell viability | 83.2 ± 5.53% |
| Cc1cc(C(=O)NOCCO)c(Nc2ccc(I)cc2F)n(C)c1=O | A-431 | WST-8 | 1 µM, 25 h, together with: IFN-γ | – | viability | 112% |
| COC(=O)c1cn(C)c2ccc(-c3cccnc3)cc12 | COS-7 | – | 10 µM, 24 h, 0.1% DMSO, unit not given | baseline: vehicle control | confluence | 0.92 ± 0.05 |
| N#Cc1ccc(O[C@H]2CC[C@H](NC(=O)c3ccc(N4CCC(CN5CCN(c6cc7c(cc6F)C(=O)N(C6CCC(=O)NC6=O)C7=O)CC5)CC4)nn3)CC2)cc1Cl (some centres unmarked) | LNCaP shLuc | cytotoxicity | 6 days | – | IC90 | 1.22 µM |
| CCCCCCCCC(=O)c1cc(O)c(O)c(O)c1 | COS-7 | WST-8 | 10 µM, 24 h, 0.1% DMSO, unit not given | baseline: vehicle control | metabolic activity | 0.58 ± 0.05 |
| CC(=O)Nc1cccc(-n2c(=O)n(C3CC3)c(=O)c3c(Nc4ccc(I)cc4F)n(C)c(=O)c(C)c32)c1 | SW1417 | – | 0.1 µM, 72 h, unit not given | baseline: DMSO | viability | 0.386 and 0.857 and 0.894 and 0.485 and 1.03 and 0.325 |

Excerpt of the above:
| Compound | cell line | assay | setting | scale | measurement | value |
| --- | --- | --- | --- | --- | --- | --- |
| CCCCCCCCC(=O)c1cc(O)c(O)c(O)c1 | COS-7 | WST-8 | 10 µM, 24 h, 0.1% DMSO, unit not given | baseline: vehicle control | metabolic activity | 0.58 ± 0.05 |
| C#Cc1cccc(Nc2ncnc3cc(OCCOC)c(OCCOC)cc23)c1 | primary mixed glial cells (astrocytes, oligodendrocytes) | cytotoxicity, sulforhodamine B | 24 h | – | IC50 | > 100 µM |
| COc1cc2c(c(O)c1OC)C(=O)c1c(cc(C)c(O)c1OC)C2=O | HepaRG co-cultured with HK-2 | MTT | 33.33 µM, 48 h | baseline: untreated control | cell viability | 83.2 ± 5.53% |
| O=C(O[C@@H]1COC(=O)c2cc(O)c(O)c(O)c2-c2c(cc(O)c(O)c2O)C(=O)O[C@H]1[C@@H]1OC(=O)c2cc(O)c(O)c(O)c2-c2c(O)c(O)c(O)c3c2C(=O)O[C@H]1[C@@H]3O)c1cc(O)c(O)c(O)c1 | human gingival fibroblasts | cytotoxicity | 48 h | – | IC50 | > 100 µg/mL |
